# Published values gathered from unrelated publications.
# Numbered parts are unrelated; each lists some results of a single study.
# Chain of UniProt Q5BJF2 (whole entry, looked up): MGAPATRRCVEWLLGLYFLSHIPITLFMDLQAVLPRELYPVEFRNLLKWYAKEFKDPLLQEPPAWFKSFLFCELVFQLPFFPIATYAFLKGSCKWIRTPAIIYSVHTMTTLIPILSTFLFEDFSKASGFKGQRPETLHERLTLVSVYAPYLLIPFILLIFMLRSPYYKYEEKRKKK
# Chain of UniProt P28566 (whole entry, looked up): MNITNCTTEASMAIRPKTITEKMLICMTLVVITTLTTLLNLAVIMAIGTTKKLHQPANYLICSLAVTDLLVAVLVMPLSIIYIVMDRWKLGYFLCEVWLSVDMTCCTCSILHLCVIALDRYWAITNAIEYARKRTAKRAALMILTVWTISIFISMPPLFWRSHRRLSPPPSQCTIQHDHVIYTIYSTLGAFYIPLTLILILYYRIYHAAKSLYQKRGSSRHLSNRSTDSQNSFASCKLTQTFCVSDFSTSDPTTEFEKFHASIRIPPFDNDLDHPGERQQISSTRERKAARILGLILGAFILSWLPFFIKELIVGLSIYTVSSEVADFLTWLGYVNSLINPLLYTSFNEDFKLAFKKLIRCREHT
# Chain of UniProt P25021 (whole entry, looked up): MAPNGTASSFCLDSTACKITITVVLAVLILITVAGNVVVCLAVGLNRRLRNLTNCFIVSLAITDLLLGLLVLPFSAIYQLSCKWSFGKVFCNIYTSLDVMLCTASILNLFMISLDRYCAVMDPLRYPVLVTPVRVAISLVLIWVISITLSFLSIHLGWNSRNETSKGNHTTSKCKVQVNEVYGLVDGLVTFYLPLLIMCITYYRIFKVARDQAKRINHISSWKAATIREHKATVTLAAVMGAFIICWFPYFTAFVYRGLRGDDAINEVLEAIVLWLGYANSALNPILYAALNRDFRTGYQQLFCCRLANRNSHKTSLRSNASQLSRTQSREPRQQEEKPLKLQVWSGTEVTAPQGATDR
# Chain of UniProt P08173 (whole entry, looked up): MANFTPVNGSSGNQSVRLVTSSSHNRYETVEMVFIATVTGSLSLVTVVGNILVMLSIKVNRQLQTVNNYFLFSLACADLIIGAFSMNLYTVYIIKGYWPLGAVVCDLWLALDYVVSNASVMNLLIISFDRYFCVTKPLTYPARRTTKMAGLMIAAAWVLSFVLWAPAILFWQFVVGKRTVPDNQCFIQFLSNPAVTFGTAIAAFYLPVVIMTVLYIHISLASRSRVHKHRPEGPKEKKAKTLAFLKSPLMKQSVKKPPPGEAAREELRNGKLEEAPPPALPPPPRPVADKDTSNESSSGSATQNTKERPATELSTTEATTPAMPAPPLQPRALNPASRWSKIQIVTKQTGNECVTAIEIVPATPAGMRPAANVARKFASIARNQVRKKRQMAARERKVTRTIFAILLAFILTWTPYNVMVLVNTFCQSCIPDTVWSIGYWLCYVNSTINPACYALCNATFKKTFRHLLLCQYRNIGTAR
# Chain of UniProt P18089 (whole entry, looked up): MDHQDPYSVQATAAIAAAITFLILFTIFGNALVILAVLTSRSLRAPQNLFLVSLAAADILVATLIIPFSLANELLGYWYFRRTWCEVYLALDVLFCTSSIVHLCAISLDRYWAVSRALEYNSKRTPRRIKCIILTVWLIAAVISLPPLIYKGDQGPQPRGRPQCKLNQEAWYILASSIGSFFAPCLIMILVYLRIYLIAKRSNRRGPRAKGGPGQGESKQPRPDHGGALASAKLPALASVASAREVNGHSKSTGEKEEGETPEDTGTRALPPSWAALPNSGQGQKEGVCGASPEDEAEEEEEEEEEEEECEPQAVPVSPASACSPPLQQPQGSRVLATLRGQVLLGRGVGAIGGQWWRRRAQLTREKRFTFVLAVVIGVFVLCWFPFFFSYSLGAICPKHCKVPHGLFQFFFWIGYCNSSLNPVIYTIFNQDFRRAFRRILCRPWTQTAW
# Chain of UniProt P28221 (whole entry, looked up): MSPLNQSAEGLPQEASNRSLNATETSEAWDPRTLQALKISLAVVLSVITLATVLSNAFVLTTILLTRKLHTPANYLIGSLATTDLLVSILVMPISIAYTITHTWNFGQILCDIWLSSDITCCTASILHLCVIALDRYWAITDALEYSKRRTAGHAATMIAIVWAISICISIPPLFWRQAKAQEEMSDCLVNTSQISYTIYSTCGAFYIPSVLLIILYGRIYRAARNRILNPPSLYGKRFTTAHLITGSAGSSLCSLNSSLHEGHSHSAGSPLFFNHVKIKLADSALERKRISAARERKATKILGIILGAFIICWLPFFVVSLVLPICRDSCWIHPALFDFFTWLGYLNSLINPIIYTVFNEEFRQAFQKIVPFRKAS
# Chain of UniProt P25100 (whole entry, looked up): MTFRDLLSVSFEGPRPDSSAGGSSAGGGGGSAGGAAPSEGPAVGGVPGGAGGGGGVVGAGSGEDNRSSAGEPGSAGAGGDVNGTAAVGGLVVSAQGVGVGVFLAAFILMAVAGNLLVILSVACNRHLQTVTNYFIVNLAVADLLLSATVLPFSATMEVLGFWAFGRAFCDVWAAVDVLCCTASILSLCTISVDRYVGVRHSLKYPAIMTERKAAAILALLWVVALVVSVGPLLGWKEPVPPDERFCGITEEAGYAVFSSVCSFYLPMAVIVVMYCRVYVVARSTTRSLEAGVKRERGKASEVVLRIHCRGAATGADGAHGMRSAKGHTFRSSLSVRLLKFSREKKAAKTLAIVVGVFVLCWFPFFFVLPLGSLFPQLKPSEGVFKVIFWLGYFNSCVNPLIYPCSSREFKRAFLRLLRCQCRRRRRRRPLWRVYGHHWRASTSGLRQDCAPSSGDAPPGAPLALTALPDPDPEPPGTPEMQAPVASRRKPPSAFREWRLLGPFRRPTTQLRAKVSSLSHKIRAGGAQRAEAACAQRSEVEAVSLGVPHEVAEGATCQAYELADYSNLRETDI
# Chain of UniProt Q9H3N8 (whole entry, looked up): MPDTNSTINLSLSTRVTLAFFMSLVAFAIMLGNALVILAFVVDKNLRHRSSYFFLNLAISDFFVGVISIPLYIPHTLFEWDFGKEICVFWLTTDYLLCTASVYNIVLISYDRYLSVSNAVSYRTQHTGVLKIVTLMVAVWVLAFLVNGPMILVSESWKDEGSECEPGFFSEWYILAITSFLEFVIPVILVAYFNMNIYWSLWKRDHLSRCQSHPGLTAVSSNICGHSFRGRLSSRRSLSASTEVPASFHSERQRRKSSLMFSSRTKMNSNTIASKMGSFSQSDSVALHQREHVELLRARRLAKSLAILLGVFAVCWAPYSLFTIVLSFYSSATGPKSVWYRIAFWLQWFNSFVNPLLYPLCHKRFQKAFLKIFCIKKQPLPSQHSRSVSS
# Chain of UniProt P13945 (whole entry, looked up): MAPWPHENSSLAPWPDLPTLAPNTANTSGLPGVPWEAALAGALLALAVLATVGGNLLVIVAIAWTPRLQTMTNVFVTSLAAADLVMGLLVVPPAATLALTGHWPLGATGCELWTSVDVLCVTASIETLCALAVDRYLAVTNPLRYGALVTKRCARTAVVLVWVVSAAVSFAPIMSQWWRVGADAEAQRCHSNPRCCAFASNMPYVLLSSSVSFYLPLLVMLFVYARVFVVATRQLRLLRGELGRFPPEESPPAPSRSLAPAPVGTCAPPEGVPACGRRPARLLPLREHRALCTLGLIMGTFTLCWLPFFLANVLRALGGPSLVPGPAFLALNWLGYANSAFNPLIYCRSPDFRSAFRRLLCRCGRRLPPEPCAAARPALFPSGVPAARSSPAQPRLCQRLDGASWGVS
# Chain of UniProt P21917 (whole entry, looked up): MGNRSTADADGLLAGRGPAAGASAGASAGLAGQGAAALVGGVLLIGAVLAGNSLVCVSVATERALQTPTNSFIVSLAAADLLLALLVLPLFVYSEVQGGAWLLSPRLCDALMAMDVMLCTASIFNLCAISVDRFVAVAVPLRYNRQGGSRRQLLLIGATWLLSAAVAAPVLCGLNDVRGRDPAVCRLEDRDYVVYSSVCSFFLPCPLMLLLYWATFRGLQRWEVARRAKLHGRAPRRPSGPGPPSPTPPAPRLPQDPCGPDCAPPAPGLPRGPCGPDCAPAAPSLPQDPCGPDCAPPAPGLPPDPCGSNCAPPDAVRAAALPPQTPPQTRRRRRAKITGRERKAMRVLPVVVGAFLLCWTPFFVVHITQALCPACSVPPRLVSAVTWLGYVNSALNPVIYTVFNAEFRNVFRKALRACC
# Chain of UniProt P14416 (whole entry, looked up): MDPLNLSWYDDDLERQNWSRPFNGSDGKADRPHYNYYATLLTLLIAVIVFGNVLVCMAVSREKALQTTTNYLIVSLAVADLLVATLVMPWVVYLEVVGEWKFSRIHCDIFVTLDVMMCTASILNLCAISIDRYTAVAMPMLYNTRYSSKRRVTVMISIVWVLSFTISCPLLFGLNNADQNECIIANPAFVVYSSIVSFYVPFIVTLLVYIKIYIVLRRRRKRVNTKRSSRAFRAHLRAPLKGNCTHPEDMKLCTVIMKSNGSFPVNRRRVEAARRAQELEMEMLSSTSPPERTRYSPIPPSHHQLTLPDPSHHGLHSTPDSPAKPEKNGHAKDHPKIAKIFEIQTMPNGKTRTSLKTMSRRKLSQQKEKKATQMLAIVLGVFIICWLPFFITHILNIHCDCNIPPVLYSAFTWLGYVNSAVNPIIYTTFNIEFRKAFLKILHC
# Chain of UniProt P08172 (whole entry, looked up): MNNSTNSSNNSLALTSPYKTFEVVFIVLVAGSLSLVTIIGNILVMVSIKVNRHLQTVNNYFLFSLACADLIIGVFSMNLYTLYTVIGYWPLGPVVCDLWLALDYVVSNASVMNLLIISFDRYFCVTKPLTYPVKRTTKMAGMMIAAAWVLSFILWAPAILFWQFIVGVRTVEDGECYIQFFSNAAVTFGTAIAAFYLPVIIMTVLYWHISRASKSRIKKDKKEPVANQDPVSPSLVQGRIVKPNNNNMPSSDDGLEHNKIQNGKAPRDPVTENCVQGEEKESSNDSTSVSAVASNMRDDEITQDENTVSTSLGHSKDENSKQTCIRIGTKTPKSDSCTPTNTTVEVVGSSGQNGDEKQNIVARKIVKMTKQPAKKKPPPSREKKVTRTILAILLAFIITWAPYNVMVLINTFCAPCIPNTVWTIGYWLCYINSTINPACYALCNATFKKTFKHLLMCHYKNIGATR

# Set 1 — concentration: 10 µM
# Structure (SMILES): COc1ccc2c(c1)O[C@H](c1ccc(OC)c(OC)c1)C[C@@H]2NC(=O)C1(c2ccc3c(c2)OC(F)(F)O3)CC1
target,assay,inhibition
"DRD3 (Homo sapiens, UniProt P35462)",cell-free assay,-1.53%
"TMEM97 (Homo sapiens, UniProt Q5BJF2)",cell-free assay,85.8%
"DRD2 (Homo sapiens, UniProt P14416)",cell-free assay,2.62%
"HTR1E (Homo sapiens, UniProt P28566)",cell-free assay,-16.3%
"DRD4 (Homo sapiens, UniProt P21917)",cell-free assay,-7.47%
"CHRM4 (Homo sapiens, UniProt P08173)",cell-free assay,-2.72%
"ADRA1B (Homo sapiens, UniProt P35368)",cell-free assay,49%
"ADRB3 (Homo sapiens, UniProt P13945)",cell-free assay,3.77%
"HTR1D (Homo sapiens, UniProt P28221)",cell-free assay,4.36%
"ADRA1D (Homo sapiens, UniProt P25100)",cell-free assay,2.75%
"HTR1B (Homo sapiens, UniProt P28222)","binding, radioligand binding",-0.84%
"ADRA2C (Homo sapiens, UniProt P18825)",cell-free assay,15.8%
"HRH2 (Homo sapiens, UniProt P25021)",cell-free assay,-6.08%
"HRH3 (Homo sapiens, UniProt Q9Y5N1)",cell-free assay,-10.7%
"HRH4 (Homo sapiens, UniProt Q9H3N8)",cell-free assay,-2.97%
"ADRA2B (Homo sapiens, UniProt P18089)",cell-free assay,37.5%
"CHRM2 (Homo sapiens, UniProt P08172)",cell-free assay,-9.38%

# Set 2 — technique: phase 2a trial; host: idiopathic pulmonary fibrosis patients
# SMILES: CC(C)n1cnc(-c2ccc(F)cc2)c1-c1ncc(C(=O)Nc2ccc(N3CCN(C)CC3)cc2)[nH]1
assay,setting,adverse event incidence [%]
measured: general and administration site disorders,"dose not given, grade 4, all arms pooled",0
measured: QRS axis abnormal,"dose not given, grade 3, all arms pooled",0
measured: arthritis,"dose not given, grade 1, all arms pooled",0
measured: QRS axis abnormal,"60 mg once daily, grade 2",0
measured: hepatic enzyme abnormal,"30 mg once daily, grade 5",0
measured: synovitis,"dose not given, grade 4, all arms pooled",0
measured: gingivitis,"60 mg once daily, grade 2",0
measured: carotid intima-media thickening,"30 mg once daily, grade 5",0
measured: immunoglobulins increased,"60 mg once daily, grade 5",0
measured: drug eruption,"30 mg once daily, grade 5",0
measured: allergic conjunctivitis,"30 mg once daily, grade 2",0

# Set 3 — host: human; medium: microsomes or S9; concentration: 2 µM; time: 0.5 h
SMILES,remaining compound
c1ccc(-c2ncc(-c3nc4ccncc4[nH]3)s2)nc1,88.7%
N#Cc1ccc2ncc(/C=C/c3nc4ccccc4o3)n2c1,9.86%
O=C(c1scc2c1OCCO2)N1CCCC(Cn2ccnc2)C1 (centres unmarked),89.3%
Cc1c(C)n(CCCN(C)C)c2ncn(CC(C)C)c(=N)c12,98.8%
CCOc1cc(CNCCO)cc(Br)c1OC(C)C,0%
Cc1ccccc1CS(=O)(=O)c1ncc(CN(CCN(C)C)C(=O)NC(C)C)n1CC(C)C,0.117%
CNS(=O)(=O)c1ccc2c(c1)CCN2C(C)=O,> 99%
O=c1c2sc3nc(N4CCOCC4)c4c(c3c2ncn1CCc1ccccc1)CCCC4,12.7%
CCOc1cc(=O)n2c(c1C(=O)Nc1cc(Cl)ccc1OC)CCCC2,27.5%
O=C(CC1(O)C(=O)Nc2cc(Cl)cc(Cl)c21)c1ccccc1 (centres unmarked),58.1%
Nc1ncnc2c1ncn2C/C=C/CN1CCN(Cc2ccccc2)CC1,> 99.9%
CCOC(=O)C1=C(n2[nH]c3nc(C)cc(COC)c3c2=N)CCC1,84%

# Set 4 — cell line: A-375; concentration: 100 µM; time: 18 h
SMILES,viability
O=c1ccc2ccc(O)c(O)c2o1,103%
COc1ccc(-c2cc(=O)c3c(O)c(OC)c(O)cc3o2)cc1OC,94.6%
NCCCNCCSP(=O)(O)O,103%
CC[C@H](Nc1ncnc2[nH]cnc12)c1nc2cccc(F)c2c(=O)n1-c1ccccc1,93.2%
COc1cc2c(cc1O)CC[C@@H]1[C@@H]2CC[C@]2(C)[C@@H](O)CC[C@@H]12,65.7%
CC(=O)Nc1ccc(CC(=O)O)cc1,103%
CN(C)CCOC(c1ccc(Cl)cc1)c1ccccn1 (centres unmarked),102%
CO/N=C(\C(=O)N[C@@H]1C(=O)N2C(C(=O)OCOC(=O)C(C)(C)C)=C(/C=C\c3scnc3C)CS[C@H]12)c1csc(N)n1,60.4%
O=C(NC[C@H]1CN(c2ccc(N3CCOCC3=O)cc2)C(=O)O1)c1ccc(Cl)s1,91.8%
Cc1ncc(CSSCc2cnc(C)c(O)c2CO)c(CO)c1O,89.8%

# For quick reference, copied from above (set 3):
SMILES,remaining compound
O=C(c1scc2c1OCCO2)N1CCCC(Cn2ccnc2)C1 (centres unmarked),89.3%
CCOc1cc(=O)n2c(c1C(=O)Nc1cc(Cl)ccc1OC)CCCC2,27.5%
c1ccc(-c2ncc(-c3nc4ccncc4[nH]3)s2)nc1,88.7%
